Published values from different studies.
Every numbered part comes from another study and shows a few of its results, in no order. Several values in a cell are separate wells, animals, samples, runs or records.
Chain of UniProt O75676 (whole entry, looked up): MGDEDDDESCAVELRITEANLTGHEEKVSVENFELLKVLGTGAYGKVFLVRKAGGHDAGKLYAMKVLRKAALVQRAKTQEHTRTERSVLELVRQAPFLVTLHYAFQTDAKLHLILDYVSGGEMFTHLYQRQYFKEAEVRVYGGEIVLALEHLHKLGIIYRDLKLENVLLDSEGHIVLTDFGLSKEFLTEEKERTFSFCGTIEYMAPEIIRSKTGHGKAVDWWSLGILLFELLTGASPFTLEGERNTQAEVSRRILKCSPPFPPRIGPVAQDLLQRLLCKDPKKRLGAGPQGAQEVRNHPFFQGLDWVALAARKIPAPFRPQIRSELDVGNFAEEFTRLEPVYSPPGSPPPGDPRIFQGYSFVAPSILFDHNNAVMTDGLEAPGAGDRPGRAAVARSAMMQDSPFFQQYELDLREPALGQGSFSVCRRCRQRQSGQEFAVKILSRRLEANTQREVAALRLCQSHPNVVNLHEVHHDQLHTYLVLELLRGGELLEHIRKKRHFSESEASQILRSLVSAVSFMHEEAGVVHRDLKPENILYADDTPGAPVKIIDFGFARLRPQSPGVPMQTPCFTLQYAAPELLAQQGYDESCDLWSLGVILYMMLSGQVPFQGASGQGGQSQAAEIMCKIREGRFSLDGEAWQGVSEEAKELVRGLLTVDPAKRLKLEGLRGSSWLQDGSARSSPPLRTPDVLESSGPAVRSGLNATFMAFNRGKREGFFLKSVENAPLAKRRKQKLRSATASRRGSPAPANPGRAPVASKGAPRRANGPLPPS
Chain of UniProt O95382 (whole entry, looked up): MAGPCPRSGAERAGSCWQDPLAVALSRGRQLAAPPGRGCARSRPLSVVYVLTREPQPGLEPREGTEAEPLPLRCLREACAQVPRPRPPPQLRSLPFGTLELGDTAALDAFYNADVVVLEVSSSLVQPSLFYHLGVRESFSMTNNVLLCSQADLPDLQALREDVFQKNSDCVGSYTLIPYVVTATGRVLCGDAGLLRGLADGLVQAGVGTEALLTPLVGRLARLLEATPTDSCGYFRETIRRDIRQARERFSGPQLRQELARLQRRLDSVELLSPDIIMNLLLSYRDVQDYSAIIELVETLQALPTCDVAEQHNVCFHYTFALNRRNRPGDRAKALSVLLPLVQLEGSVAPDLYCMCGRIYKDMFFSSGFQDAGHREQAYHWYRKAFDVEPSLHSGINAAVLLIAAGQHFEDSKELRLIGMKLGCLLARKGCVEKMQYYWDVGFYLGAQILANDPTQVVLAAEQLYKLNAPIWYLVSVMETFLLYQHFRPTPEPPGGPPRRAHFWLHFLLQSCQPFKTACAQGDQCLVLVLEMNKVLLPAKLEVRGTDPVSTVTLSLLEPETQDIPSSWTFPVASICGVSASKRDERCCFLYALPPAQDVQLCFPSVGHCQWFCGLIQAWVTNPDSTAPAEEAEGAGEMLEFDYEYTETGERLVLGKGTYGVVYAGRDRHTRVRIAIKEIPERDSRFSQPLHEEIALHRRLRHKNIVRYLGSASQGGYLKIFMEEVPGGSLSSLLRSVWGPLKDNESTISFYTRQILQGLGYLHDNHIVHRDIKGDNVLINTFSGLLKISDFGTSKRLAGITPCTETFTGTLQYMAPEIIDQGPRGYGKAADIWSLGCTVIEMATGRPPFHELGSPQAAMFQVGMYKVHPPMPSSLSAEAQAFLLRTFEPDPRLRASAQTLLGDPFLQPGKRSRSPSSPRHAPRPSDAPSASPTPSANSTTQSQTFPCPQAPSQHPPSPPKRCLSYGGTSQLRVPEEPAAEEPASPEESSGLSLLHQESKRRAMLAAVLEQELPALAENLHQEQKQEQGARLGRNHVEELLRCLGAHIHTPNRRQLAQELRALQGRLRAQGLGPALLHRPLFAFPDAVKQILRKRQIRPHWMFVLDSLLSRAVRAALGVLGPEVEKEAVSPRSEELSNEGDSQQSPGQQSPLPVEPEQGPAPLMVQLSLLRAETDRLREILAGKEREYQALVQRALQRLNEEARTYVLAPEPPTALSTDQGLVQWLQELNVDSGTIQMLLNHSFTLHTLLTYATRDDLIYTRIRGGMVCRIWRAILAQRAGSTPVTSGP
Chain of UniProt Q12851 (whole entry, looked up): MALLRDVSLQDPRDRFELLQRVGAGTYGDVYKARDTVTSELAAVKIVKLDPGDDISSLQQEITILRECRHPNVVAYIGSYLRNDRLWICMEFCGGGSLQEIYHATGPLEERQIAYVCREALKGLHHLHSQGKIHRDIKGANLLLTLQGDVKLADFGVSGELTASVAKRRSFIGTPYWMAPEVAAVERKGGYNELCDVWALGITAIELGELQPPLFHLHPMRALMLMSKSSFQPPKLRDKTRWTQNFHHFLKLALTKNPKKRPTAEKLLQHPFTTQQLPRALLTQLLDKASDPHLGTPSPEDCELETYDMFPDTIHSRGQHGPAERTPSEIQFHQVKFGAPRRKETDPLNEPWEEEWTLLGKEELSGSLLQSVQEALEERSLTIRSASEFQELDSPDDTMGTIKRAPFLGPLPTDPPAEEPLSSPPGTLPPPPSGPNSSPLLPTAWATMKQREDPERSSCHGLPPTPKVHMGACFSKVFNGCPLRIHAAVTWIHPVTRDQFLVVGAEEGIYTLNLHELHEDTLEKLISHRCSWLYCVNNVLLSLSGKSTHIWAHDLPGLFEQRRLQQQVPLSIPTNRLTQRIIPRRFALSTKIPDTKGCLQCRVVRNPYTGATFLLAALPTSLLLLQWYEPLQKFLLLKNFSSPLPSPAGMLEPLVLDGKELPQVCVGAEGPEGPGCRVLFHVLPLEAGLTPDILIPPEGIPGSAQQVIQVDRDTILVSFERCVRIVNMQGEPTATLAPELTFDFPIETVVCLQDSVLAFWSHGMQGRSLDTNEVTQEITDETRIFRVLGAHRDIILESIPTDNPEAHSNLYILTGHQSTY
Chain of UniProt Q02750 (whole entry, looked up): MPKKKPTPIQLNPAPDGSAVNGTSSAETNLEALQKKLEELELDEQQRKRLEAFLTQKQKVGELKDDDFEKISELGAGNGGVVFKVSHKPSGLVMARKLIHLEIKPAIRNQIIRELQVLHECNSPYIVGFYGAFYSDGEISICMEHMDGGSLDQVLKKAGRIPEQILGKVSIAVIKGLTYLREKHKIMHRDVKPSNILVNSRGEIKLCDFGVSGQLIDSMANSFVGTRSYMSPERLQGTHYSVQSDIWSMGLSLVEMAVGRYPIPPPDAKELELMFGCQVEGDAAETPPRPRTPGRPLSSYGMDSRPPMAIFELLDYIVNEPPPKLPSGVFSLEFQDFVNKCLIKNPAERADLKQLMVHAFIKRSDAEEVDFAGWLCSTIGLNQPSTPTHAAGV
Chain of UniProt Q15349 (whole entry, looked up): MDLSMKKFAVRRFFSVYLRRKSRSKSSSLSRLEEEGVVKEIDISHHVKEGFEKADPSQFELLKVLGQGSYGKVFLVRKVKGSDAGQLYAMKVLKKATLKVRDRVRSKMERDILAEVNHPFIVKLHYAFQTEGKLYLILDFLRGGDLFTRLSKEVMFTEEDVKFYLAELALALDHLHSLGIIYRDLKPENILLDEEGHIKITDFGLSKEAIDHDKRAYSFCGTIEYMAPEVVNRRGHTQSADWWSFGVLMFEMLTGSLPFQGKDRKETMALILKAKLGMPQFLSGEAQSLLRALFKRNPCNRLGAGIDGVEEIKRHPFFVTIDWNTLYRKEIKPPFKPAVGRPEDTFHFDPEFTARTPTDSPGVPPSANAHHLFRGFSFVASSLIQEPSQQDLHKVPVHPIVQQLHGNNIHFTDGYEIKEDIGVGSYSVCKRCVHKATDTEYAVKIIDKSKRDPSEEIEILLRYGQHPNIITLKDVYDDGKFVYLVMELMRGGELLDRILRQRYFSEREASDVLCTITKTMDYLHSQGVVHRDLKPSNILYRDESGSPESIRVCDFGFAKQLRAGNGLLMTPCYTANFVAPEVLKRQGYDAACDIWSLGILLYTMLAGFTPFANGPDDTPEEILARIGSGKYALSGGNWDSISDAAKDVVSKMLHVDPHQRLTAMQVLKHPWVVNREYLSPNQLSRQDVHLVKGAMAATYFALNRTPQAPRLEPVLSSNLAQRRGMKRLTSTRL
Chain of UniProt P30291 (whole entry, looked up): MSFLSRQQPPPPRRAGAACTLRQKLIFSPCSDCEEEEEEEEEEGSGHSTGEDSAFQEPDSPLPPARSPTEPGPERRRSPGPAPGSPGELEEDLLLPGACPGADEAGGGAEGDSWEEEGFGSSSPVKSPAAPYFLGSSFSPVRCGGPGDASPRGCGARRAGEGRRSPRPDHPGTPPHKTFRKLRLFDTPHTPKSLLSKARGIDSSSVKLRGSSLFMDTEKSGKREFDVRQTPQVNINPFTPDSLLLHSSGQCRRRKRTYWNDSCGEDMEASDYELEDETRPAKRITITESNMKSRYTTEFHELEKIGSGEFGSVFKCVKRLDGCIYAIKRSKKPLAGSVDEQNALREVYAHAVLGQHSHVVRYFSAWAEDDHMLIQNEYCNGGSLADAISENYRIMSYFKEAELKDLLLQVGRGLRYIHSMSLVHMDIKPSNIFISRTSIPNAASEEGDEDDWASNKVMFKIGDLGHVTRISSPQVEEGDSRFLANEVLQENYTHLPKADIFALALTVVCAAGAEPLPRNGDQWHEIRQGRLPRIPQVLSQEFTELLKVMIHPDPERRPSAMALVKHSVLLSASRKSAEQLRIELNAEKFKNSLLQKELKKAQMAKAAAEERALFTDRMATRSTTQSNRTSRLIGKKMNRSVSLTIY
Chain of UniProt Q52WX2 (whole entry, looked up): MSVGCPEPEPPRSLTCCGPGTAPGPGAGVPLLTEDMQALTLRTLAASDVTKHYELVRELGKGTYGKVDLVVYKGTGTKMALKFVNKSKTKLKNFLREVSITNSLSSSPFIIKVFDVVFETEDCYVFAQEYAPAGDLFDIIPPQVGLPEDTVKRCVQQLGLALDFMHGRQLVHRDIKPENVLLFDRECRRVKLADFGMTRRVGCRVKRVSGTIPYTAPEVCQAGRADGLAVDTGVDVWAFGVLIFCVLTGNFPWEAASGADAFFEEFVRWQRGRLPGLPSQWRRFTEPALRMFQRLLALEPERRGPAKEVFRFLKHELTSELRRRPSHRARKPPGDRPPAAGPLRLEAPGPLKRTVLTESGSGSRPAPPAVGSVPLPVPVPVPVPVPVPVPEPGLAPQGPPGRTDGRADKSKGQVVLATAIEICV

Block 1
Cell line: mouse MPNST tumor cells
Technique: high-content immunofluorescence imaging
Item: nuclear SOX9
Concentration: 10 µM
Time: 12 h
Setting: mean of 2 replicates
Baseline: DMSO control
Reading: higher = more nuclear SOX9
Quantity: nuclear SOX9 intensity
CCC[C@H](N[C@@H](C)C(=O)N1[C@H](C(=O)O)C[C@@H]2CCCC[C@@H]21)C(=O)OCC: 91.1 % of DMSO
CC(C)Oc1cccc(-n2c(CCc3c[nH]c4ccc(Br)cc34)nc3ccccc3c2=O)c1: 107 % of DMSO
Cc1nc2sccn2c(=O)c1CCN1CCC(=C(c2ccc(F)cc2)c2ccc(F)cc2)CC1: 130 % of DMSO
N#Cc1cc(F)cc(-c2nc(-c3ccc(F)cn3)no2)c1: 105 % of DMSO
O=C(NCc1ccc(OC(F)(F)F)cc1)C1c2ccccc2C(=O)N1C1CCOCC1 (stereo not shown): 105 % of DMSO
Brc1ccc(CCC2(Cn3ccnc3)OCCO2)cc1: 96.8 % of DMSO
COC(=O)c1c(-c2cc(OC)c(OC)c(OC)c2)c2ccnc(OCc3ncccn3)c2c(=O)n1Cc1ccnc(C)c1: 101 % of DMSO
COc1ccc(C[C@@H]2c3cc(OC)c(OC)cc3CC[N@+]2(C)CCC(=O)OCCCCCOC(=O)CC[N@@+]2(C)CCc3cc(OC)c(OC)cc3[C@H]2Cc2ccc(OC)c(OC)c2)cc1OC: 77.1 % of DMSO and 89.8 % of DMSO
COc1cc([C@@H]2c3cc4c(cc3[C@@H](O[C@@H]3O[C@@H]5CO[C@@H](C)O[C@H]5[C@H](O)[C@H]3O)[C@H]3COC(=O)[C@H]23)OCO4)cc(OC)c1O: 120 % of DMSO and 141 % of DMSO
c1ccc(C(NCCNC(c2ccccc2)c2ccccc2)c2ccccc2)cc1: 100 % of DMSO

Block 2
SMILES: CCC(=N\O)/C(C)=C/c1ccc(F)cc1
Technique: competition with immobilised ligand
Concentration: 1 µM
Quantity: remaining binding
Ribosomal protein S6 kinase alpha-4, N-terminal kinase domain (RPS6KA4, Homo sapiens, UniProt O75676); cell-free assay: 96%
TTK (Homo sapiens, UniProt P33981); cell-free assay: 96%
PLK1 (Homo sapiens, UniProt P53350); cell-free assay: 93%
Tyrosine-protein kinase ABL1, non-phosphorylated (ABL1, Homo sapiens, UniProt P00519, F317L); cell-free assay: 81%
MAP3K6 (Homo sapiens, UniProt O95382); cell-free assay: 63%
Ribosomal protein S6 kinase alpha-2, N-terminal kinase domain (RPS6KA2, Homo sapiens, UniProt Q15349); cell-free assay: 85%
SBK1 (Homo sapiens, UniProt Q52WX2); cell-free assay: 100%
CHUK (Homo sapiens, UniProt O15111); cell-free assay: 67%
FLT3 (Homo sapiens, UniProt P36888, D835V/ITD); cell-free assay: 76%
BMP2K (Homo sapiens, UniProt Q9NSY1); cell-free assay: 80%
WEE1 (Homo sapiens, UniProt P30291); cell-free assay: 97%
MAP3K4 (Homo sapiens, UniProt Q9Y6R4); cell-free assay: 99%
MELK (Homo sapiens, UniProt Q14680); cell-free assay: 96%
CDC42BPB (Homo sapiens, UniProt Q9Y5S2); cell-free assay: 100%
NEK5 (Homo sapiens, UniProt Q6P3R8); cell-free assay: 84%
STK11 (Homo sapiens, UniProt Q15831); cell-free assay: 100%
TXK (Homo sapiens, UniProt P42681); binding: 81%
MKNK2 (Homo sapiens, UniProt Q9HBH9); cell-free assay: 100%
FLT3 (Homo sapiens, UniProt P36888, D835H); cell-free assay: 100%
MAP3K3 (Homo sapiens, UniProt Q99759); cell-free assay: 86%
BMPR1B (Homo sapiens, UniProt O00238); cell-free assay: 87%
EPHA8 (Homo sapiens, UniProt P29322); cell-free assay: 100%
MET (Homo sapiens, UniProt P08581, M1250T); cell-free assay: 76%
EGFR (Homo sapiens, UniProt P00533, del746-750); cell-free assay: 61%
MYLK2 (Homo sapiens, UniProt Q9H1R3); cell-free assay: 81%

Block 3
SMILES: O=C(Nc1cnn(-c2csc(C(=O)NC3COC3)c2)c1)Nc1ccccc1Cl
Observed: enzyme activity
Concentration: 5 µM
Baseline: untreated control
Quantity: remaining activity
MAP2K1 (Homo sapiens, UniProt Q02750): 102%
MAP4K2 (Homo sapiens, UniProt Q12851): 102%
RPS6KA4 (Homo sapiens, UniProt O75676): 90.6%
RPS6KA1 (Homo sapiens, UniProt Q15418): 91.4%
AXL (Homo sapiens, UniProt P30530): 93.8%
TSSK3 (Homo sapiens, UniProt Q96PN8): 97.6%
Myosin-IIIb (MYO3B, Homo sapiens, UniProt Q8WXR4): 126%
CLK4 (Homo sapiens, UniProt Q9HAZ1): 63.2%

Block 4
Species: mouse
Sample: microsomes or S9
Concentration: 2 µM
Time: 0.5 h
Quantity: remaining compound
CCCc1cc(=O)[nH]c(-n2nc(C)cc2NC(=O)COc2ccccc2C)n1: 20.2%
CC1=C(c2ccc(F)cc2)S(=O)(=O)N=C1Nc1ccc2[nH]c(C(F)(F)F)nc2c1: 72.6%
OC(Cn1cnc2ccccc21)Cn1c2ccccc2c2ccccc21 (stereo not shown): 0.0164%
Clc1ccc2ccn(Cc3ccccc3Br)c2n1: 4.73%
CCN1C(=O)CCN(S(=O)(=O)c2cn(C)cn2)CC12CCOCC2: 92.9%
Cc1c(NC(=O)c2ccc(Cl)cc2)c(=O)n(-c2ccccc2)n1C: 84.7%
CN1Cc2cc(NCc3c(Cl)cnn3C)ccc2NC1=O: 65.4%
COC(=O)c1cc(OC)c(OC)cc1NC(=O)c1c(Br)cnn1C: 3.65%
COc1cc(=O)n(C)cc1C(=O)N1CCC(n2cc(-c3ccccc3)nn2)C1 (stereo not shown): 91.4%

A few entries again (block 2):
STK11 (Homo sapiens, UniProt Q15831); cell-free assay: 100%
CDC42BPB (Homo sapiens, UniProt Q9Y5S2); cell-free assay: 100%
MELK (Homo sapiens, UniProt Q14680); cell-free assay: 96%
